Measured values of several laboratories.
Protocols differ between the studies behind these lines. Numbers after ± are the reported error.

`CCCC[C@H](NC(=O)CNC(=O)CNC(=O)[C@H](CCCCNC(=O)[C@H](CC(=O)O)NC(=O)C(C)c1ccc(CC(C)C)cc1)NC(=O)CN1CCN(CC(=O)O)CCN(CC(=O)O)CCN(CC(=O)O)CC1)C(=O)N[C@H]1CC(=O)NCCCC[C@@H](C(N)=O)NC(=O)[C@H](Cc2c[nH]c3ccccc23)NC(=O)[C@H](CCCNC(=N)N)NC(=O)[C@@H](Cc2ccccc2)NC(=O)[C@H](Cc2c[nH]cn2)NC1=O` (stereo partly shown) [lutetium-177 labelled] has a tissue uptake of 1.58 ± 0.78 %ID/g (C57 mice, tumour-bearing, liver; intravenous, 0.037 MBq, 24 h).
`Cc1cc(C)n(CCN(CCN)CCCCCCNC(=O)[C@@H](N)Cc2c[nH]cn2)n1.[99Tc+].[C-]#[O+].[C-]#[O+].[C-]#[O+]` gave a tissue uptake of 0.71 ± 0.32 %IA/g (BALB/c nude mice, MCF7 xenograft, pancreas; intravenous, 15 min).
For `CC[C@H](C)[C@H](NC(=O)C[C@H](NC(=O)CN1CCN2CCN(CC1)CC(=O)[O][Al]([18F])[O]C(=O)C2)C(=O)O)C(=O)N[C@H]1CCc2cccc3c2N(C1=O)[C@H](C(=O)NCc1cn[nH]n1)C3`, the tissue uptake was 0.08 ± 0.05 %ID/g (C57BL/6J mice, MC-38 tumour, anti-PD-1 treated, brain; 0.5 h).
`O=C(NCC1OC2CCC=CCCC2O1)c1ccc(COCCOCCOCC[18F])cc1` (stereo not shown) gave a tissue uptake of 10.3 ± 0.9 %ID/g (healthy female BALB/c nude mice, small intestine; intravenous, 7.4 MBq per mouse, 30 min).
The tissue uptake of `COc1ccc2c(c1)C(C)(C)C(/C=C/C1=C(Oc3ccc(C(=O)NCCCCOc4cc(CN(Cc5ccccn5)Cc5ccccn5)cc(CN(Cc5ccccn5)Cc5ccccn5)c4)cc3)C(=C/C=C3/N(CCCCS(=O)(=O)[O-])c4ccc(OC)cc4C3(C)C)CCC1)=[N+]2CCCCS(=O)(=O)[O-].O=[N+]([O-])[O-].O=[N+]([O-])[O-].[99Tc+].[C-]#[O+].[C-]#[O+].[C-]#[O+].[Zn+2]` is reported as 1.13 %ID/g (healthy BALB/c mice, urine and bladder; 12 h).
With `CC(=O)N([O-])CCCCCNC(=O)CCC(=O)N([O-])CCCCCNC(=O)CCC(=O)N([O-])CCCCCN.[89Zr+4]` the tissue uptake was 0.01 %ID/g (gamma counting; healthy Balb/c mice, muscle; intravenous, 24 h, 89Zr-labelled complex).
`COc1ccc(Nc2nc(Nc3ccc(OCCOCC[18F])cc3)ncc2Br)cc1` gave a tissue uptake of 2.34 ± 0.14 %ID/g (ICR mice, S180 tumour-bearing, spleen; intravenous, 370 kBq, 15 min).
With `C[N+](C)(CCOCCOCCOCCNC(=S)Nc1ccc(C[C@H]2CN(CC(=O)[O-])CCN(CC(=O)[O-])CCN2CC(=O)[O-])cc1)C[c-]1cccc1.[64Cu+2].[Fe+2].c1cc[cH-]c1` the tissue uptake was 0.4 %ID/g (refers to: kidney; nude mice, BxPC-3 tumour; 8 h, pretargeting, 72 h lag).
For `CCCC[C@H](NC(=O)CCCCCCCNC(=O)CN1CCN(CC(=O)O)CCN(CC(=O)O)CC1)C(=O)N[C@H]1CC(=O)NCCCC[C@@H](C(N)=O)NC(=O)[C@H](Cc2c[nH]c3ccccc23)NC(=O)[C@H](CCCNC(=N)N)NC(=O)[C@@H](Cc2ccccc2)NC(=O)[C@H](Cc2c[nH]cn2)NC1=O` [fluorine-18 labelled], the tissue uptake was 1.89 ± 0.23 %ID/g (C57 mice, B16/F10 melanoma, liver; intravenous, 1 h, added: NDP-MSH 10 µg).
`COc1ccc(Nc2nc(Nc3ccc(OCCOCCOCC[18F])cc3)ncc2Br)cc1` has a tissue uptake of 5.72 ± 0.13 %ID (ICR mice, S180 tumour, intestine; intravenous, 370 kBq, 120 min).
For `O=C(O)CCCOc1ccc([18F])cc1-c1cc(-c2ccccc2C(F)(F)F)n(-c2ccccc2)n1`, the tissue uptake was 1.36 ± 0.04 %ID/g (mice, small intestine; intravenous, 5 min).
`O=C(NCC1OC2CCC=CCCC2O1)c1ccc([18F])nc1` (stereo not shown) gave a tissue uptake of 6.3 ± 2.3 %ID/g (healthy female BALB/c nude mice, pancreas; intravenous, 7.4 MBq per mouse, 10 min).
`O=C([O-])CN1CCN(CC(=O)[O-])CCN(CC(=O)NC[C@H]2CC[C@H](C(=O)N[C@H](Cc3cnc4ccccc4c3)C(=O)NCCCC[C@H](NC(=O)N[C@@H](CCC(=O)O)C(=O)O)C(=O)O)CC2)CCN(CC(=O)[O-])CC1.[64Cu+2]` gave a tissue uptake of 43.6 %ID/g (ex vivo gamma counting; 22Rv1 tumour-bearing mice, kidney; intravenous, 0.74 MBq, 6 h post-injection).
`CN(O)C(=O)CCC(=O)NCCCN(CCCCN(CCCNC(=O)CCC(=O)N(C)O)C(=O)CCC(=O)N(C)O)C(=O)CCC(=O)N(C)O.[89Zr]` has a tissue uptake of 0.06 %ID/g (gamma counting; healthy Balb/c mice, adrenal; intravenous, 4 h, 89Zr-labelled complex).
`N#C[C@@H]1CC(F)(F)CN1C(=O)CNC(=O)c1ccnc2c(NC(=O)[C@H](CCCCNC(=O)CCOCCOCCOCCOCCOCCOCCNC(=O)CN3CCN(CC(=O)[O-])CCN(CC(=O)[O-])CCN(CC(=O)[O-])CC3)NC(=O)CCCc3ccc(I)cc3)cccc12.[177Lu+3]` has a tissue uptake of 4.83 ± 0.24 %ID/g (biodistribution; U-87 MG tumour-bearing mice, tumor; 48 h).
For `N#C[C@@H]1CCCN1C(=O)CNC(=O)c1ccnc2ccc(OCCCN3CCN(C(=O)CCc4ccc(O)c(CN5CCN6CC(=O)[O][Al-]([18F])([O]C(=O)C5)[O]c5ccc(CCC(=O)N7CCN(CCCOc8ccc9nccc(C(=O)NCC(=O)N%10CCC[C@H]%10C#N)c9c8)CC7)cc5C6)c4)CC3)cc12` (stereo partly shown), the tissue uptake was 2.05 ± 0.61 %ID/g (BALB/c nude mice, U-87 MG xenograft, stomach; 1 h, blocking, added: DOTA-FAPI-04 40 nmol/mouse co-injected).
For `Cc1nc(N)nc2c1C(=O)N[C@@H](c1ccc(F)cc1-c1cccc(OCC[18F])n1)C2`, the tissue uptake was 0.46 ± 0.08 %ID (ex vivo biodistribution; C57BL/6 mice, urine; intravenous, 1 MBq, 30 min).
`N[C@H](CSC(F)(F)[18F])C(=O)O` has a tissue uptake of 1.44 ± 0.24 %ID/g (Kunming mice, turpentine inflammation, blood; intravenous, 0.74 MBq, 60 min).
For `N#C[C@@H]1CCCN1C(=O)CNC(=O)c1ccnc2ccc(OCCCN3CCN(C(=O)CCc4ccc5c(c4)CN4CCN(Cc6cc(CCC(=O)O)ccc6O)CC(=O)[O][Al-]([18F])([O]C(=O)C4)[O]5)CC3)cc12` (stereo partly shown), the tissue uptake was 0.29 ± 0.18 %ID/g (BALB/c nude mice, U-87 MG xenograft, spleen; 1 h, blocking, added: DOTA-FAPI-04 40 nmol/mouse co-injected).
`CC(C)c1noc(C2CCN(c3ncnc(Nc4ccc(OCC[18F])cc4)c3[N+](=O)[O-])CC2)n1` has a tissue uptake of 1.79 ± 0.17 %ID/g (ex vivo biodistribution after PET; C57BL/J male mice, pancreas; 60 min).
`C[N+](C)(CCOCCOCCOCCOCCOCCOCCOCCNC(=S)Nc1ccc(CC2CN(CC(=O)[O-])CCN(CC(=O)[O-])CCN2CC(=O)[O-])cc1)C[c-]1cccc1.[64Cu+2].[Fe+2].c1cc[cH-]c1` (stereo not shown) has a tissue uptake of 4.8 ± 1.1 %ID/g (refers to: large intestine; nude mice, BxPC-3 tumour; 8 h post injection, pretargeting, 72 h lag).
`CC(C)C[C@H](NC(=O)[C@@H](CCCCNC(=O)[C@@H](Cc1ccccc1)NC(=O)CCCCCCCNC(=O)CN1CCN(CC(=O)O)CCN(CC(=O)O)CCN(CC(=O)O)CC1)NC(=O)[C@H](Cc1ccc(O)cc1)NC(=O)[C@H](CO)NC(=O)[C@H](Cc1c[nH]c2ccccc12)NC(=O)[C@H](Cc1c[nH]cn1)NC(=O)[C@@H]1CCC(=O)N1)C(=O)N[C@@H](CCCNC(=N)N)C(=O)N1CCC[C@H]1C(=O)NCC(N)=O` [indium-111 labelled] has a tissue uptake of 0.11 ± 0.05 %ID/g (biodistribution; male athymic nude mice, DU-145 prostate cancer xenograft, brain; intravenous, 0.037 MBq, 1 h post-injection).

For quick reference, copied from above:
For `N#C[C@@H]1CCCN1C(=O)CNC(=O)c1ccnc2ccc(OCCCN3CCN(C(=O)CCc4ccc(O)c(CN5CCN6CC(=O)[O][Al-]([18F])([O]C(=O)C5)[O]c5ccc(CCC(=O)N7CCN(CCCOc8ccc9nccc(C(=O)NCC(=O)N%10CCC[C@H]%10C#N)c9c8)CC7)cc5C6)c4)CC3)cc12` (stereo partly shown), the tissue uptake was 2.05 ± 0.61 %ID/g (BALB/c nude mice, U-87 MG xenograft, stomach; 1 h, blocking, added: DOTA-FAPI-04 40 nmol/mouse co-injected).
